Experimental data collected from several papers.
Protocols differ between the studies behind these lines. Numbers after ± are the reported error.

C/C(=C\CC/C(C)=C/CC[C@]1(C)CCc2cc(O)cc(C)c2O1)CC/C=C(\C)C(=O)O  IC50 (differentiated HL-60; LTB4 formation; 10 min pre-incubation, together with: thapsigargin): 11 µM
O=C(O)c1cc(O)c2c(c1)C(=O)c1cccc(O)c1C2=O  IC50 (Jurkat; cell growth or viability, ATP luminescence; 24 h): 277 µM
CC(C)c1cccc(C(C)C)c1-n1ccn(-c2c(C(C)C)cccc2C(C)C)[c]1=[Au][Se]c1ccccc1  IC50 (Vero E6; cytotoxicity, crystal violet staining; 96 h): 7.1 ± 0.6 µM
COC(=O)CC(O)(CC(=O)OC)C(=O)O  IC50 (Hepa-1c1c7; cell growth or viability): > 100 µM
CCCC[C@@H](C=O)NC(=O)[C@H](CC(C)C)NC(=O)OCc1ccccc1  IC50 (H4 cells overexpressing human APP K595N/M596L; amyloid beta secretion, MSD immunoassay, item: amyloid beta 38; 24 h): 4 µM
CC(=O)C1=CC[C@H]2[C@]3(C)CC[C@H]4C(C)(C)CCC[C@]4(CO)[C@H]3CC(=O)[C@]2(C)[C@H]1C=O  IC50 (T47D; luciferase reporter gene; 16 h, hypoxia 1% O2, together with: pGL3-Control construct): > 10 µM
O=c1[nH]c2ccccc2nc1/C=C/c1ccccc1Cl  IC50 (NCI-H460; cell growth or viability, MTT; 72 h): 16.4 µM
CC(C(=O)[O-])C(=O)[O-].CC(C(=O)[O-])C(=O)[O-].NCCN.[Pt+4]  IC50 (CH1; cell viability, MTT; 96 h): 202 ± 5 µM
O=c1[nH]c2ccccc2nc1/C=C/c1ccccn1  IC50 (NCI-H460; cell growth or viability, MTT; 72 h): 0.46 µM
O=C(COc1ccc(-c2nc3ccc(F)cc3[nH]2)cc1F)N1CCOCC1  IC50 (Z-138; cell growth or viability, MTS; 72 h): > 100 µM
O=c1[nH]cc(F)c(=O)[nH]1  IC50 (ReNcell VM; cell viability, live/dead 3D alginate microarray; 24 h exposure plus 48 h): 8.4 µM
COc1ccc([C@H](CC(=O)O)N2CCN(CCCc3ccc4c(n3)NCCC4)C2=O)cn1  IC50 (human podocytes; cell migration; 48 h, together with: puromycin 15 µg/mL): 0.0099 µM
CC(=O)O[C@H]1C(=O)[C@@]2(C)[C@H]([C@H](OC(=O)c3ccccc3)[C@]3(O)C[C@H](OC(=O)[C@H](O)[C@@H](NC(=O)c4ccccc4)c4ccccc4)C(C)=C1C3(C)C)[C@]1(OC(C)=O)CO[C@@H]1C[C@@H]2O  IC50 (HCT-15/ADM2; cell growth, XTT; 72 h): 0.859 µg/mL
C=C1C(=O)O[C@@H]2/C=C(\C)CC/C=C(\C)CC[C@@H]12  IC50 (NCI/ADR-RES; cell growth, inhibitor, Alamar blue): 17.1 ± 0.9 µM
substance P  IC50 (LAD2 mast cells, IgE-sensitized; FcεRI surface expression decrease, flow cytometry; 24 h): 22.5 µg/mL
O=C1c2cccc(O)c2C(=O)c2c(O)cc(CO)cc21  IC50 (Jurkat; cell growth or viability, ATP luminescence; 24 h): 185 µM
CNC(=O)c1cc(Oc2ccc(NC(=O)Nc3ccc(Cl)c(C(F)(F)F)c3)cc2)ccn1  IC50 (LMC-3 with DHFR overexpression; cell viability, MTT): > 3 µM
C=C1CCC[C@]2(C)CC[C@@H](C(C)(C)O)C[C@@H]12  IC50 (HuCCT-1; cell growth or viability, MTT; 72 h): 16.8 µg/mL
O=C(COc1ccc(-c2nc3ccc(F)cc3[nH]2)cc1)N1CCOCC1  IC50 (Z-138; cell growth or viability, MTS; 72 h): > 100 µM
CCCCCCNC(=O)n1cc(F)c(=O)[nH]c1=O  IC50 (MH-22A; cell viability, MTT; 72 h): 43 µM
COc1cc([C@@H]2c3cc4c(cc3[C@@H](O[C@@H]3O[C@@H]5CO[C@@H](C)O[C@H]5[C@H](O)[C@H]3O)[C@H]3COC(=O)[C@H]23)OCO4)cc(OC)c1O  IC50 (Z-138; cell growth or viability, MTS; 72 h): 0.7 µM
CC(=O)c1c(O)cc(O)cc1O[C@@H]1O[C@H](CO)[C@@H](O)[C@H](O)[C@H]1O  IC50 (Hepa-1c1c7; cell growth or viability): > 100 µM
Nc1nc2[nH]c(CCCc3ccc(C(=O)N[C@@H](CCCC(=O)O)C(=O)O)s3)cc2c(=O)[nH]1  IC50 (CHO RT16 (human FRα); cell growth; together with: folic acid 200 nM): > 1 µM
CN1CCN(c2ccc3nc(-c4c(N)c5c(F)cccc5[nH]c4=O)[nH]c3c2)CC1  IC50 (B16-F10; cell growth or viability, MTT; 72 h): 29.6 µM
CS(=O)(=O)CCNCc1ccc(-c2ccc3ncnc(Nc4ccc(OCc5cccc(F)c5)c(Cl)c4)c3c2)o1  IC50 (NCI-N87; cell growth, inhibitor; 2% serum albumin): 0.373 ± 0.0355 µM
O=C(CC1NCCCC1O)Cn1cnc2cc(Br)c(Cl)cc2c1=O (stereo not shown)  IC50 (mouse CD4+ CD25- T cells; Th17 differentiation; together with: increasing proline): increased
Cn1cc(Nc2nccc(-c3ccc4c(c3)CN(C3COC3)CC[C@H]4NC(=O)c3cn(C(C)(C)C)nn3)n2)cn1  IC50 (CD19+ B cells; CD69 expression; human whole blood; healthy donors, together with: anti-IgD): 0.106 ± 0.07 µM
Cc1ncsc1-c1ccc([C@H](C)NC(=O)[C@@H]2C[C@@H](O)CN2C(=O)[C@@H](NC(=O)CCCCCC(=O)N2CCN(CC[C@H](CSc3ccccc3)Nc3ccc(S(=O)(=O)NC(=O)c4ccc(N5CCN(CC6=C(c7ccc(Cl)cc7)CCC(C)(C)C6)CC5)cc4)cc3S(=O)(=O)C(F)(F)F)CC2)C(C)(C)C)cc1  IC50 (Loucy; cell growth, CCK-8; 48 h): 0.002 µM
O=c1[nH]c2ccccc2nc1/C=C/c1ccco1  IC50 (B16-F10; cell growth or viability, MTT; 72 h): 9.56 µM
Clc1ccc2nc(-c3ccc(OCCN4CCOCC4)cc3)[nH]c2c1  IC50 (Z-138; cell growth or viability, MTS; 72 h): 47 µM
CC[C@H](C)[C@H](N)C(=O)N[C@H](C(=O)N[C@@H](CCCNC(=N)N)C(=O)N[C@@H](Cc1c[nH]c2ccccc12)C(=O)N[C@@H](CO)C(=O)N[C@@H](CCCCN)C(=O)N[C@@H](CCCCN)C(=O)N[C@H](C(=O)N1CCC[C@H]1C(=O)N[C@@H](CS)C(=O)N[C@H](C(=O)N[C@@H](CO)C(=O)O)C(C)C)C(C)C)C(C)C  IC50 (SUP-T1; AKT phosphorylation, inhibitor, phosphoflow cytometry; together with: CXCL12 100 ng/mL, 2 min): 38 ± 26.9 µM
CC1=CC(C)=[N+]2C1=C(CCCC(=O)O)c1c(C)cc(C)n1[B-]2(F)F  IC50 (HEp-2 cells; phototoxicity; together with: light 1.5 J/cm^2): > 100 µM
Fc1ccccc1/C=C/c1nc2ccccc2nc1Cl  IC50 (NCI-H460; cell growth or viability, MTT; 72 h): 34 µM
C[C@]12CC[C@@H]3c4ccc(O)cc4CC[C@H]3[C@@H]1CC[C@@H]2O  IC50 (GPER-transduced Sf9; ERK phosphorylation, inhibitor, immunoblotting; 15 min): 0.0046 µM
O=c1[nH]c2ccccc2nc1/C=C/c1ccccc1  IC50 (B16-F10; cell growth or viability, MTT; 72 h): 4.27 µM
O=C(COc1ccc(-c2nc3ccc(Cl)cc3[nH]2)cc1F)N1CCOCC1  IC50 (Z-138; cell proliferation, MTS; 72 h): 64.8 µM
CC[C@]1(O)C[C@H]2CN(CCc3c([nH]c4ccccc34)[C@@](C(=O)OC)(c3cc4c(cc3OC)N(C=O)[C@H]3[C@@](O)(C(=O)OC)[C@H](OC(C)=O)[C@]5(CC)C=CCN6CC[C@]43[C@@H]65)C2)C1  IC50 (HCT-15/ADM2; cell growth, XTT; 72 h): 2.02 µg/mL
c1ccc(-c2ccccn2)nc1  IC50 (A549, B16-F10, Caco-2, HT-29; cell viability; dark): > 100 µM
C#CCOc1ccc(/C=N\NC(=O)c2ccccc2)cc1  IC50 (T47D; cell growth or viability, MTT; 48 h): 208 µM
CC(C)c1cccc(C(C)C)c1-n1ccn(-c2c(C(C)C)cccc2C(C)C)[c]1=[Cu][Se]c1ccccc1  IC50 (Vero E6; cytotoxicity, crystal violet staining; 96 h): 1.1 ± 0.2 µM
Cc1ccc2nc(NC(=O)Cn3cc(COc4ccc(/C=N\NC(N)=S)cc4)nn3)sc2c1  IC50 (T47D; cell growth or viability, MTT; 48 h): 119 µM
O=C1Nc2ccccc2C1=Cc1cc2cc(Cl)ccc2nc1Cl  IC50 (OV2008; cell viability, MTT; 72 h): 48.8 µM
Cn1c(=O)c(/C=C/c2ccccc2)nc2ccccc21  IC50 (B16-F10; cell growth or viability, MTT; 72 h): 0.79 µM
CC(C)C[C@H](NC(=O)CNC(=O)Cc1c(F)c(F)c(F)c(F)c1F)C(=O)[C@@]1(C)CO1  IC50 (NCI-H460; cell growth or viability): > 10 µM
COc1cccc2c1C(=O)c1c(O)c3c(c(O)c1C2=O)C[C@@](O)(C(=O)CO)C[C@@H]3O[C@H]1C[C@H](N)[C@H](O)[C@H](C)O1  IC50 (BEAS-2B; cell growth or viability, MTT; 72 h): 0.22 µM
CS(=O)(=O)CCNCc1ccc(-c2ccc3ncnc(Nc4ccc(OCc5cccc(F)c5)c(Cl)c4)c3c2)o1  IC50 (A-431; cell growth or viability, ATP luminescence; 72 h): 0.968 µM
CC(=O)C(=NNc1ccc(S(=O)(=O)Nc2ncccn2)cc1)C(C)=O  IC50 (A-431; cell growth or viability, MTT; 48 h): 17.2 µM
CC(C)(C)C(=O)Oc1ccc(S(=O)(=O)Nc2ccccc2C(=O)NCC(=O)O)cc1  IC50 (BEAS-2B; cell growth or viability, MTT; 24 h): 0.861 µM
O=C(N=P12CN3CN(CN(C3)C1)C2)c1ccccc1Br  IC50 (Jurkat; cytotoxicity, MTT; 24 h, 1% DMSO): > 500 µM
O=C(Cn1cc(COc2ccc(/C=N\Nc3ccc([N+](=O)[O-])cc3[N+](=O)[O-])cc2)nn1)Nc1nc2ccccc2s1  IC50 (T47D; cell growth or viability, MTT; 48 h): 95 µM
O=c1[nH]c2ccccc2nc1/C=C/c1ccccc1F  IC50 (NCI-H460; cell growth or viability, MTT; 72 h): > 50 µM
CCC(=O)C(=NNc1ccc(S(=O)(=O)Nc2ncccn2)cc1)C(C)=O  IC50 (A-431; cell growth or viability, MTT; 48 h): 18.2 µM
